Measured values collected from several papers.
“And” joins repeats or separate records; there may be more than shown. ± marks the error that the study gave.
Lysophospholipase-like protein 1: Lysophospholipase-like protein 1 (Mus musculus, UniProt Q3UFF7)
RPA1 N-terminal domain: Replication protein A 70 kDa DNA-binding subunit, N-terminal domain (RPA1, Homo sapiens, UniProt P27694)
E3 ubiquitin-protein ligase NEDD4: E3 ubiquitin-protein ligase NEDD4 (Homo sapiens, UniProt P46934)
GRM4: Metabotropic glutamate receptor 4 (GRM4, Homo sapiens, UniProt Q14833)
Grm2: Metabotropic glutamate receptor 2 (Grm2, Rattus norvegicus, UniProt P31421)
BTK non-phosphorylated: Tyrosine-protein kinase BTK, non-phosphorylated (BTK, Homo sapiens, UniProt Q06187)
VDR: Vitamin D3 receptor (VDR, Homo sapiens, UniProt P11473)

Amino acid sequences for entries named in this document (tags omitted). Chains listed by the source or under a name are the forms on record and can include a tag or linker. Residues count along the entry.
UniProt P46934, whole entry, looked up: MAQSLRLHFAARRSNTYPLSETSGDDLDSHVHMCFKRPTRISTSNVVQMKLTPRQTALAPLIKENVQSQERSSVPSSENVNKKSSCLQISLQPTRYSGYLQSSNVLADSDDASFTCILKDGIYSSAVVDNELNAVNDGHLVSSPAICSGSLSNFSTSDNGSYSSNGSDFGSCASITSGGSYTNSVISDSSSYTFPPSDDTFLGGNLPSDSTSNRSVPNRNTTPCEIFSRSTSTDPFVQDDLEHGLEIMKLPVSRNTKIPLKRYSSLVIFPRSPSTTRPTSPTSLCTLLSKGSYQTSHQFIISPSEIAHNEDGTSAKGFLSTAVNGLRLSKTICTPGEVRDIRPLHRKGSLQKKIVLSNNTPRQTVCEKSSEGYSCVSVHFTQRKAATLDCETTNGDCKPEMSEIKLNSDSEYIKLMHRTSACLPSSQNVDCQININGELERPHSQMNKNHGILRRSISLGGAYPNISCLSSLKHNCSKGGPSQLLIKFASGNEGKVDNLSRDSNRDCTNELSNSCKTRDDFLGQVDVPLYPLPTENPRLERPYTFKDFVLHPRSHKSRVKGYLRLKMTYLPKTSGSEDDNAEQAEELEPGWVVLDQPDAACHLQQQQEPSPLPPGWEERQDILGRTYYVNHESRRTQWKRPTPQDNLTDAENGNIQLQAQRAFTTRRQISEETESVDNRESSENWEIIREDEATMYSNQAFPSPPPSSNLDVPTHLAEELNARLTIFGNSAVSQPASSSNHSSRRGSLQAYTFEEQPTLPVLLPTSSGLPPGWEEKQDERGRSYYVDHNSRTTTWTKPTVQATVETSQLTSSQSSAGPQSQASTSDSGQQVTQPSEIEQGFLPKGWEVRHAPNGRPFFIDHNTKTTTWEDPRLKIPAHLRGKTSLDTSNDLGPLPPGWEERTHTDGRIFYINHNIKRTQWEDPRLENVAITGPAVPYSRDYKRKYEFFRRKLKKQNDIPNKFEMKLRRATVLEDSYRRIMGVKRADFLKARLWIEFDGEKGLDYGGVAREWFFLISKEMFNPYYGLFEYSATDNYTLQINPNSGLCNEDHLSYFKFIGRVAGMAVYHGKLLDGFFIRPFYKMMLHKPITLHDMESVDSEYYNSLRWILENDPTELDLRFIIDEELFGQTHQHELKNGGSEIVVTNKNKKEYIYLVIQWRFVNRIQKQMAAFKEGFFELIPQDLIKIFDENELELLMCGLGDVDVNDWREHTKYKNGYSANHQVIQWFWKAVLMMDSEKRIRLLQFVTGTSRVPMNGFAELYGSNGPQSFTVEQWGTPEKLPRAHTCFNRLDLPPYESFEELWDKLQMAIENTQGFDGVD
UniProt Q14833, 33-912 limits assumed: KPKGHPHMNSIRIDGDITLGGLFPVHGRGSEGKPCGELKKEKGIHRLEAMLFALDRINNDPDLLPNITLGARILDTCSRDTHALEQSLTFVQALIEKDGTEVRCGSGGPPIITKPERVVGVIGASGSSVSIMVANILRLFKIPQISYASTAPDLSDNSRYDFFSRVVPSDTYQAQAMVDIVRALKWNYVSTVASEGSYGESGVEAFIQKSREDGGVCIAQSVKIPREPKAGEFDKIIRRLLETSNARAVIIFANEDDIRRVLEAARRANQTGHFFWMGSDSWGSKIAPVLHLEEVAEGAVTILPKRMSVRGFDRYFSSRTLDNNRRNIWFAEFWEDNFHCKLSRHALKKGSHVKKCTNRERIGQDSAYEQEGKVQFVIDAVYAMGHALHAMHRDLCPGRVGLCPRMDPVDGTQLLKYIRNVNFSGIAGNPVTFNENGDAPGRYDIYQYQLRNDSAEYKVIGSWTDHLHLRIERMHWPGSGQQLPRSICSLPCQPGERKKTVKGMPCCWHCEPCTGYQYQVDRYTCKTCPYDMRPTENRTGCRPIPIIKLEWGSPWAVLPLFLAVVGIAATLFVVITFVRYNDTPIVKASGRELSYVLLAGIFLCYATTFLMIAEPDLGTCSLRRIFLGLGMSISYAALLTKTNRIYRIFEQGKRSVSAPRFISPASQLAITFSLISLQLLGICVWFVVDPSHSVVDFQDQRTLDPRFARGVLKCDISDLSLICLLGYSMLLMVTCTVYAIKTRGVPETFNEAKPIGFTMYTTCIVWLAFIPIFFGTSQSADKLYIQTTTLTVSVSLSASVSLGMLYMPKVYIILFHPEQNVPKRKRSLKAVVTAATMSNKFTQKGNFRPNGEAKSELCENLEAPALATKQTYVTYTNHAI
UniProt P31421, 19-872 limits assumed: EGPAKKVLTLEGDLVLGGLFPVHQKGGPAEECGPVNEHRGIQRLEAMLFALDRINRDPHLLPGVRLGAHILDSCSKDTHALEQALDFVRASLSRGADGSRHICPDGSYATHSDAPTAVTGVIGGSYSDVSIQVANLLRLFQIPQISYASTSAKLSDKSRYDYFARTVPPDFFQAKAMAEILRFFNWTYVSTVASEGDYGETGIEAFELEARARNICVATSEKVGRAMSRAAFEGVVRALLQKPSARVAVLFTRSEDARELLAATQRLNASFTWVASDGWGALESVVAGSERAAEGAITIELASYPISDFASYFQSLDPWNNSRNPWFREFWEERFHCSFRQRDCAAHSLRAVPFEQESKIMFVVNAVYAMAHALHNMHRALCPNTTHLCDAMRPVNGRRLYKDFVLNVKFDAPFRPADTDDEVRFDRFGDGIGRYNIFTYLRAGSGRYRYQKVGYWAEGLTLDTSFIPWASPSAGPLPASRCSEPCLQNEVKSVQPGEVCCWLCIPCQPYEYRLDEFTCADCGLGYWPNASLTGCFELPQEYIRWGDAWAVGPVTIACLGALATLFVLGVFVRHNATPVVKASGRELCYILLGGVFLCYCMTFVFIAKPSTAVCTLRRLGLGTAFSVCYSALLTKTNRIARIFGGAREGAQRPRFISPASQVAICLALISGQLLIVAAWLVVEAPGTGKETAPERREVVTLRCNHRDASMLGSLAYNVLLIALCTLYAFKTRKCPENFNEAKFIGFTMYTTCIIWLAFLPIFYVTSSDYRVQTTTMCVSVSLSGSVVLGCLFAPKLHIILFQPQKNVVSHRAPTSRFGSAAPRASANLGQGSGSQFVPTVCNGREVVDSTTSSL
UniProt Q99797, 36-713 limits assumed: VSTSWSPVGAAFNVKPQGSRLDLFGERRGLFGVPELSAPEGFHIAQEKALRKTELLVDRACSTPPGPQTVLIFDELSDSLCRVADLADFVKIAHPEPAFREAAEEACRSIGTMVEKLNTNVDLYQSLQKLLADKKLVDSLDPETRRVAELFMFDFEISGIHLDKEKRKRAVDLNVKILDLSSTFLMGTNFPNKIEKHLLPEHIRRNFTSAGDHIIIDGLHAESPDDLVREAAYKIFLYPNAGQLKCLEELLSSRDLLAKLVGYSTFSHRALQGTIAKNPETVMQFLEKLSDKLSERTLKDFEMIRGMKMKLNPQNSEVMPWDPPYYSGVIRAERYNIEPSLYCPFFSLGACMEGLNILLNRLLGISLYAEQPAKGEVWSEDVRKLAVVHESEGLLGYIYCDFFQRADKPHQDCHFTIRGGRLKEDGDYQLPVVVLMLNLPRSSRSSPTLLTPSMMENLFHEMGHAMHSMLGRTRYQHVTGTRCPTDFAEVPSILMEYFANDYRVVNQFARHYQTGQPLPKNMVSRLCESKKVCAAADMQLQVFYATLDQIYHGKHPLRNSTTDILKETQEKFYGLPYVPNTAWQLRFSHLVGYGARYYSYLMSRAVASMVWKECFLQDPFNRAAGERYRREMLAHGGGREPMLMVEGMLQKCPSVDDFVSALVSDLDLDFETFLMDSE
UniProt P05067, 672-713 limits assumed: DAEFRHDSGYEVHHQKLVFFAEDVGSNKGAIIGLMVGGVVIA
UniProt P05067, whole entry, looked up: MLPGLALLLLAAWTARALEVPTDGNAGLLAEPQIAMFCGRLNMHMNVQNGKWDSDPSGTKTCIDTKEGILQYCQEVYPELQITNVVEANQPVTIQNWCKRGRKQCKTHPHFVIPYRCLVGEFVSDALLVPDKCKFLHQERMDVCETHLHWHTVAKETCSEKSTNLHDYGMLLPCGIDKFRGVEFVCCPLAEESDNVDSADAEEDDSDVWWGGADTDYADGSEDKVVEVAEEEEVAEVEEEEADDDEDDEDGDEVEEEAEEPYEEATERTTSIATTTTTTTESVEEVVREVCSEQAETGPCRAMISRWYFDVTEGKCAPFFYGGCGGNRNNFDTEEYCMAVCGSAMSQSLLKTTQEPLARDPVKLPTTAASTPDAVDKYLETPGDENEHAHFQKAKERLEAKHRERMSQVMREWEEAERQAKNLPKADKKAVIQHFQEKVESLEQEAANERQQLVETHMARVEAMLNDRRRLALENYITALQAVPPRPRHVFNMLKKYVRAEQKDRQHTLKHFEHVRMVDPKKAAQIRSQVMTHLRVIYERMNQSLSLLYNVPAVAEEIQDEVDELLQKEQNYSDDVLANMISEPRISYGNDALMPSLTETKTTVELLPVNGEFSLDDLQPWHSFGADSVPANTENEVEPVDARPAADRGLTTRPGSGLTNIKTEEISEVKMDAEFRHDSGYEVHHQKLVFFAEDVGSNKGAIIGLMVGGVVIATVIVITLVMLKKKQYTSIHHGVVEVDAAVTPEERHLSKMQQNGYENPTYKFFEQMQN
UniProt P13569, 1-1480 with tags or gaps DEL508-508: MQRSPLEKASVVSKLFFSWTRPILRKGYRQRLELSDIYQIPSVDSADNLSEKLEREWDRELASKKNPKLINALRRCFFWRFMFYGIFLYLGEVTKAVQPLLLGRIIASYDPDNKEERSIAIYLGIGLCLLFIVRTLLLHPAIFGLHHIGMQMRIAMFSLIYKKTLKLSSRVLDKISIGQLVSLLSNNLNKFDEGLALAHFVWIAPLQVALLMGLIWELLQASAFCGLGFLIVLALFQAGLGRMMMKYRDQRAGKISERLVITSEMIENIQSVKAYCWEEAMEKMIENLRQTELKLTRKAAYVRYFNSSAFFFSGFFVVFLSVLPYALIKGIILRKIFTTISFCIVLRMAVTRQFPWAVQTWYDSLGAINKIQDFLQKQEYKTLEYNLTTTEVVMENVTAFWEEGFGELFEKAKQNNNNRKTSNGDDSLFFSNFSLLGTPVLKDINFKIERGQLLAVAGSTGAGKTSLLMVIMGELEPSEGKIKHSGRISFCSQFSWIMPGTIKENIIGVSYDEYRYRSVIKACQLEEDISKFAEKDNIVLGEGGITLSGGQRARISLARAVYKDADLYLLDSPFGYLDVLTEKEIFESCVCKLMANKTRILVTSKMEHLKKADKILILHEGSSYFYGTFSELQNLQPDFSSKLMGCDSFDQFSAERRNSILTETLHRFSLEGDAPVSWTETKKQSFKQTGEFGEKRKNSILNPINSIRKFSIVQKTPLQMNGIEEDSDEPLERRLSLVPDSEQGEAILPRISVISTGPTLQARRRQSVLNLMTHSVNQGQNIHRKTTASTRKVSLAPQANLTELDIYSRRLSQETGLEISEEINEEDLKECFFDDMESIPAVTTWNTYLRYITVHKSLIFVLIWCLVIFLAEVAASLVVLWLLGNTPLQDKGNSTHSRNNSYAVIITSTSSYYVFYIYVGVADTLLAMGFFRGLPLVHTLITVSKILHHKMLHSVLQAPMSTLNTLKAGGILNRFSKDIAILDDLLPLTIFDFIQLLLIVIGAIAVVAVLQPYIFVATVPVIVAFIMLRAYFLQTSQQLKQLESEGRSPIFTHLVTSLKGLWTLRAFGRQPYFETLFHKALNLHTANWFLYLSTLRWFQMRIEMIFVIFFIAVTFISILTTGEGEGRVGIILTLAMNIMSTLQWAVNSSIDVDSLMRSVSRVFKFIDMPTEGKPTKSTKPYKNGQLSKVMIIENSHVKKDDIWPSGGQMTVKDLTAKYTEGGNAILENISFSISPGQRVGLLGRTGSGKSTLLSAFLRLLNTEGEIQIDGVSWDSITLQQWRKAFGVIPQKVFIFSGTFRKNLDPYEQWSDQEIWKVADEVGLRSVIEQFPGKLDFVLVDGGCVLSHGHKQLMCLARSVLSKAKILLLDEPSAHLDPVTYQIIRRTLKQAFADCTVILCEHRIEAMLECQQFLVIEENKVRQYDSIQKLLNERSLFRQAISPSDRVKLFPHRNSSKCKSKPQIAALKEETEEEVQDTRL
UniProt P43220, whole entry, looked up: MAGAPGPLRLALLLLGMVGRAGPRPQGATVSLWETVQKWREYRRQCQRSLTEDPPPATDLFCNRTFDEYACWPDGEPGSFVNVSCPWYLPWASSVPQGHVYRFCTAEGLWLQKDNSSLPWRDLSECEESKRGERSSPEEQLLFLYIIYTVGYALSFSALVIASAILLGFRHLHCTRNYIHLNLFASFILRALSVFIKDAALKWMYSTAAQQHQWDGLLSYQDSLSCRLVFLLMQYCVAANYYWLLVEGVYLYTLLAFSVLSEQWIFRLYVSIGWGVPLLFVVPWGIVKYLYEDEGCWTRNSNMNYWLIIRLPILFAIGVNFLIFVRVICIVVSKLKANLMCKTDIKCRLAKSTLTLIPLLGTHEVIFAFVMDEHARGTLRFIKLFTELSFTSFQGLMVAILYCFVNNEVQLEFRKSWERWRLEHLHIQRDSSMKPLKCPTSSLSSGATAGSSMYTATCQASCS

| Structure (SMILES) | target | test | test system | setting | how to read | quantity | value |
| --- | --- | --- | --- | --- | --- | --- | --- |
| CC(=O)N1CCN(c2ccc(Nc3ncc4c(n3)N(C)C(=O)N(c3cc(NC(=O)c5ccc(CN6CCC(N(C)C)C6)c(C(F)(F)F)c5)ccc3C)C4)cn2)CC1 (stereo not drawn) | FGFR4/Transcription factor ETV6 (Homo sapiens, UniProt P22455+P41212, V550E) | cell proliferation | Ba/F3 TEL-FGFR4 V550E |  |  | GI50 | 0.024 µM |
| Nc1nc(SCc2ccc(Cl)cc2)nn1S(=O)(=O)c1cccc([N+](=O)[O-])c1 | Lysophospholipase-like protein 1 | activator, gel-based ABPP, FP-rhodamine | HEK293 overexpressing Lysophospholipase-like protein 1 | 10 µM |  | activation | 128% |
| Cc1ccc(C(=O)Nc2ccc(F)cc2C(=O)O)cc1S(=O)(=O)Nc1ccc(Br)cc1 | RPA1 N-terminal domain | binding, fluorescence polarisation competition |  | together with: FITC-ATRIP probe |  | ligand efficiency | 0.2 |
| CCOC(=O)/C=C/CNCCCCCN1c2ccccc2CCc2ccc(Cl)cc21 | E3 ubiquitin-protein ligase NEDD4 | inhibitor, Ub-TR-FRET |  | 3.704 µM, 1 h preincubation, HECT domain, together with: ATP 2 mM | higher = more ubiquitination | ubiquitination TR-FRET signal AUC | 61700 a.u. and 63600 a.u. and 44600 a.u. and 60700 a.u. and 35500 a.u. and 47500 a.u. |
| Cc1ccc(NC(=O)c2ccc(C)c(S(=O)(=O)Nc3ccc(Cl)c(Cl)c3)c2)c(C(=O)O)c1 | RPA1 N-terminal domain | binding, fluorescence polarisation competition |  | together with: FITC-ATRIP probe |  | ligand efficiency | 0.23 |
| CCN(CC)c1ccc2c(-c3ccccc3C(=O)N(C)CCCC(=O)N[C@@H](CC(C)C)C(=O)N[C@@H](CCCNC(=N)N)C(=O)N[C@@H](CCCNC(=N)N)C(=O)N[C@@H](C)C(=O)N[C@@H](CO)C(=O)N[C@@H](CC(C)C)C(=O)NCC(=O)O)c3ccc(=[N+](CC)CC)cc-3oc2c1 | cAMP-dependent protein kinase catalytic subunit alpha (PRKACA, Homo sapiens, UniProt P17612) | substrate, HPLC-Vis |  | 10 µM, 1 h, pH 7.4, 10 mM MgCl2, together with: ATP 25 µM, PKACα 0.5 nM |  | phosphorylation | 33.6% |
| O=C(Nc1cccc(F)c1)C12CC1/C(=N\O)c1ccccc1O2 (stereo not drawn) | GRM4 | positive allosteric modulator, calcium mobilization | CHO expressing Gqi5 | concentration not given, together with: glutamate EC20 | relative to: (±)-PHCCC | response | 73.2 ± 6.3% |
| CSCC[C@H](NC(=O)c1ccccc1N)C(=O)N[C@H](C(=O)N[C@@H](C)C(=O)N[C@@H](C)C(=O)N[C@@H](CC(C)C)C(=O)N[C@@H](CCCCN)C(=O)N[C@H](C(=O)N[C@@H](CCCCNc1ccc([N+](=O)[O-])cc1[N+](=O)[O-])C(N)=O)[C@@H](C)O)[C@@H](C)O | Mitochondrial intermediate peptidase (MIPEP, Homo sapiens, UniProt Q99797) | substrate, FRET peptide hydrolysis |  | multiple cleavage sites |  | apparent kcat/Km | 45000 M⁻¹ s⁻¹ |
| NC(=O)c1cn(-c2ccc(F)cc2)c2ccc(CN3CCCS(=O)(=O)CC3)cc2c1=O | Grm2 | calcium mobilization, negative allosteric modulator |  | 30 µM, together with: glutamate 100 µM | relative to: glutamate maximum | response | 1.24 ± 0.04% |
| COc1ccc(NC(=O)CN2CCCN(S(=O)(=O)c3ccc(C(C)(C)C)cc3)CC2)c(OC)c1 | GRM4 | calcium mobilization, positive allosteric modulator | CHO cells with Gqi5 | together with: glutamate | relative to: PHCCC maximal response | maximal response | 32.6 ± 3.1% |
| CC(=O)Nc1ncc(CN2CC[C@H](Oc3cccc(F)n3)C[C@@H]2C)s1 [isotope labelled] | Protein O-GlcNAcase (Macaca mulatta, UniProt F6QIP2) | autoradiography | monkey solitary tract nucleus | 5 nM, radiolabelled compound |  | specific binding | 8.3 nCi/mg |
| O=C(OC(C(F)(F)F)C(F)(F)F)N1CCc2cc(Br)ccc2C1 | Fatty-acid amide hydrolase 1 (FAAH, Homo sapiens, UniProt O00519) | enzyme activity, inhibitor, fluorescence AAMCA substrate |  | 1 µM |  | activity | inactive |
| CC(=O)N[C@@H](CCC(N)=O)C(=O)N[C@H](C(=O)N[C@@H](C)C(=O)N[C@@H](CCCNC(=N)N)C(=O)N[C@@H](CCCCNC(=O)CCc1ccc(N=Nc2ccc(N(C)C)cc2)cc1)C(=O)N[C@@H](CO)C(=O)N[C@H](C(=O)NCC(=O)NCC(=O)NCCCNC(=S)Nc1ccc2c(c1)C(=O)OC21c2ccc(O)cc2Oc2cc(O)ccc21)[C@@H](C)O)[C@@H](C)O | NAD-dependent protein deacetylase sirtuin-1 (SIRT1, Homo sapiens, UniProt Q96EB6) | substrate, fluorescence kinetics |  | 7 nM SIRT1 |  | kcat/Km | 230000 M⁻¹ s⁻¹ |
| COc1ccc(NC(=O)CN2CCCN(S(=O)(=O)c3ccc(C(C)=O)cc3)CC2)c(OC)c1 | GRM4 | calcium mobilization, positive allosteric modulator | CHO cells with Gqi5 | together with: glutamate | relative to: PHCCC maximal response | maximal response | 42.9 ± 2.7% |
| CCOC(=O)/C=C/CNCCCCN1c2ccccc2CCc2ccc(Cl)cc21 | E3 ubiquitin-protein ligase NEDD4 | inhibitor, Ub-TR-FRET |  | 0.04572 µM, 1 h preincubation, HECT domain, together with: ATP 2 mM | higher = more ubiquitination | ubiquitination TR-FRET signal AUC | 88000 a.u. and 142000 a.u. and 94600 a.u. and 127000 a.u. and 93400 a.u. and 92600 a.u. |
| Nc1ncnc2c1c(-c1ccc(C(=O)Nc3cc(C(F)(F)F)ccn3)cc1)nn2[C@@H]1CCCN(C(=O)C2CC2)C1 | BTK non-phosphorylated | TR-FRET binding kinetics |  | 25 °C, unphosphorylated protein |  | residence time | 19.9 min |
| O=[N+]([O-])c1cccc(/C=C/c2c[nH]c3ccc(F)cc23)c1 | Amyloid-beta precursor protein, Aβ1-40 (APP, Homo sapiens, UniProt P05067) | Aβ40 aggregation, thioflavin T fluorescence |  | 25 µM |  | inhibition | 31% |
| COC(=O)CC(C(=O)/C=C/c1ccc(O)c(OC(F)(F)F)c1)C(=O)/C=C/c1ccc(O)c(OC(F)(F)F)c1 | Amyloid-beta precursor protein (APP, Homo sapiens, UniProt P05067) | SDS-PAGE western blot, measured: Aβ1-42 species 75-200 kDa |  | 30 µM, 24 h, 37 °C, together with: Aβ 10 µM | relative to: DMSO control | Aβ band density | 575 ± 125% |

| Structure (SMILES) | target | test | test system | setting | how to read | quantity | value |
| --- | --- | --- | --- | --- | --- | --- | --- |
| Nc1ncnc2c1c(-c1ccc(C(=O)Nc3cc(OC(F)(F)F)ccn3)cc1)nn2[C@@H]1CCCN(C(=O)C2CC2)C1 | BTK non-phosphorylated | TR-FRET binding kinetics |  | 37 °C, unphosphorylated enzyme |  | residence time | 39 ± 4 min |
| O=C(Nc1nccs1)C12CC1/C(=N\O)c1ccccc1O2 (stereo not drawn) | GRM4 | positive allosteric modulator, calcium mobilization | CHO expressing Gqi5 | concentration not given, together with: glutamate EC20 | relative to: glutamate 1 mM | response | 127 ± 10.4% |
| CCOC(=O)/C=C/CNCCCN1c2ccccc2CCc2ccc(Br)cc21 | E3 ubiquitin-protein ligase NEDD4 | inhibitor, Ub-TR-FRET |  | 33.33 µM, 1 h preincubation, HECT domain, together with: ATP 2 mM | higher = more ubiquitination | ubiquitination TR-FRET signal AUC | 45100 a.u. and 39800 a.u. |
| Cc1cccc(Nc2ncnc3onc(-c4ccc(Cl)cc4)c23)c1C | Cystic fibrosis transmembrane conductance regulator (CFTR, Homo sapiens, UniProt P13569, del508-508) |  | FRT expressing ΔF508-CFTR |  | relative to: DMSO | iodide influx rate | 109 µM/s |
| CC(C)(Cn1cc(-c2ccc(N)nc2)nn1)c1c[nH]c2ccccc12 | Glucagon-like peptide 1 receptor (GLP1R, Homo sapiens, UniProt P43220) | cAMP accumulation, positive allosteric modulator, HTRF |  | 0.6 µM, crude reaction product, together with: GLP-1(9-36) at EC20 | relative to: BETP | Emax | 87.1% |
| OC1CCN(c2ncc(-c3cc4ccc(F)cc4[nH]3)cn2)CC1 [isotope labelled] | Alpha-synuclein, aggregated (SNCA, Homo sapiens, UniProt P37840) | binding | Parkinson's disease brain homogenate |  |  | Bmax | 140 ± 50 nM |
| C[C@H](NC(=O)[C@@H](Cc1c[nH]c2ccccc12)NC(=O)[C@@H](N)Cc1c[nH]cn1)C(=O)NN(Cc1ccc(O)cc1)C(=O)N[C@H](Cc1ccccc1)C(=O)N[C@@H](CCCCN)C(N)=O | Platelet glycoprotein 4 (CD36, Homo sapiens, UniProt P16671) | binding | whole human blood | 7.5 µM, 90 min |  | SPR response | 0.46 ± 0.08 nm |
| O=C(O)c1ccc(NC(=O)C(NS(=O)(=O)c2cccs2)c2ccccc2)cc1Cl (stereo not drawn) | Uracil nucleotide/cysteinyl leukotriene receptor, long isoform (GPR17, Homo sapiens, UniProt Q13304) | calcium mobilization, antagonist | 1321N1 stably expressing GPR17 | fitted at highest concentration | higher = stronger inhibition | Emax | 109 ± 4.46% |
| Nc1nc(SCc2ccc(Cl)cc2)nn1S(=O)(=O)c1cccc2c1CCCC2 | Lysophospholipase-like protein 1 (LYPLAL1, Homo sapiens, UniProt Q5VWZ2) | activator, gel-based ABPP | purified protein |  | relative to: DMSO | FP-rhodamine labelling | 2.4 fold |
| Cc1cc(SCc2sc(-c3ccc4cn[nH]c4c3)nc2C)ccc1OCC(=O)O | VDR | reporter gene, antagonist | HEK-293T | up to 100 µM, CYP24A1 promoter luciferase, together with: 1,25(OH)2D3 10 nM |  | IC50 | inactive |
| Cc1ccc(C(=O)Nc2ccc(C(C)C)cc2C(=O)O)cc1S(=O)(=O)Nc1cccc(Cl)c1 | RPA1 N-terminal domain | binding, fluorescence polarisation competition |  | together with: FITC-ATRIP probe |  | ligand efficiency | 0.22 |
| CCc1ccc(NC(=O)CSc2nc3ccc(OC)cc3[nH]2)cc1 | fMet-Leu-Phe receptor (FPR1, Homo sapiens, UniProt P21462) | calcium mobilization, agonist | transfected HL-60 cells | concentration not given |  | activity class | active |
| CC(=O)NCCCC[C@H](NC(=O)CNC(=O)[C@H](CCCNC(=N)N)NC(C)=O)C(=O)Nc1ccc2c(C)cc(=O)oc2c1 | Protein deacetylase HDAC6 (HDAC6, Homo sapiens, UniProt Q9UBN7) | deacetylation, substrate |  | 25 °C, together with: 10 to 50 nM enzyme |  | kcat | 0.4 ± 0.02 s⁻¹ |
| Cc1cc(SCc2sc(-c3cccc(C(=O)NCCCN(C)C)c3)nc2C)ccc1OCC(=O)O | VDR | reporter gene, antagonist | HEK-293T | up to 100 µM, CYP24A1 promoter luciferase, together with: 1,25(OH)2D3 10 nM |  | IC50 | inactive |
| COC(=O)[C@@]1(C)C=C(C(=O)Nc2cccc(C(=O)NC34CC(Nc5nccc(-c6cccnc6)n5)(C3)C4)c2)C(=O)CC1 | Mitogen-activated protein kinase 10 (MAPK10, Homo sapiens, UniProt P53779) | enzyme activity, inhibitor |  | 0.1829 µM |  | remaining activity | 0.168 fraction of control |
| Nc1nc(SCc2ccc(Cl)c(Cl)c2)nn1S(=O)(=O)c1ccc2c(c1)CCO2 | Lysophospholipase-like protein 1 | activator, gel-based ABPP, FP-rhodamine | HEK293 overexpressing Lysophospholipase-like protein 1 | 10 µM |  | activation | 74% |
| CCOC(=O)C1OC1C(=O)N(CC(N)=O)NC(=O)C1CCCN1C(C)=O (stereo not drawn) | Legumain (Mus musculus, UniProt O89017) | inhibitor |  | pH 5.8, together with: Cbz-Ala-Ala-Asn-AMC 10 µM |  | kobs/[I] | 27400 M⁻¹ s⁻¹ |
| NC(=O)c1cn(-c2ccc(F)cc2)c2ccc(OCc3cccnc3)cc2c1=O | Grm2 | calcium mobilization, negative allosteric modulator |  | 30 µM, together with: glutamate 100 µM | relative to: glutamate maximum | response | 1.63 ± 0.33% |
